# Measured values from different studies.
# Numbered parts are unrelated; each lists some results of a single study. Changes are numbered by the printed parent chain.

# Set 1
# Target: ATF5, bZIP domain (human)
# Technique: DHFR protein complementation
# Medium: yeast
# Setting: single substitutions, most at no-binding floor
# Reference: wild-type JUN-FOS pair
# Reading: higher = stronger binding
# Starting sequence: JUN, bZIP domain (human); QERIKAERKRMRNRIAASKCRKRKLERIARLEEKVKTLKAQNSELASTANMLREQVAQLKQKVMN; partner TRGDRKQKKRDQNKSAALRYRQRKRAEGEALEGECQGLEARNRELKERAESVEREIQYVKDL
Variant,binding fitness
L31T,-1.5 natural log
K39W,-1.52 natural log
E32P,-1.52 natural log
S43W,-1.48 natural log
L31N,-1.46 natural log
A29K,-1.52 natural log
K36M,-1.43 natural log
E54Q,-1.44 natural log
E54V,-1.41 natural log
S47Y,-1.51 natural log
R53I,-1.42 natural log
T37E,-1.33 natural log
E54K,-0.989 natural log
L52N,-1.39 natural log
A40E,-1.57 natural log
S43A,-1.59 natural log
V56E,-1.44 natural log
R30T,-1.41 natural log

# Set 2
# Target: ABI1, truncated, D143A, DHFR fusion (Arabidopsis thaliana)
# Technique: DHFR PCA, deep sequencing
# Medium: yeast
# Setting: methotrexate growth selection, single substitutions
# Added: (+)-ABA 710 µM
# Reference: wild-type fitted maximum
# Reading: higher = stronger binding
# Starting sequence: PYL1, truncated, DHFR fusion (Arabidopsis thaliana); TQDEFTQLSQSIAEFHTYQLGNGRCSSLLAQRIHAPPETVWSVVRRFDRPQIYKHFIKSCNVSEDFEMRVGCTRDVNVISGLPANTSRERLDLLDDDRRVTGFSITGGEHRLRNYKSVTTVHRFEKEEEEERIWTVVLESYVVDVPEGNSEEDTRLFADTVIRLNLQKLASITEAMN; partner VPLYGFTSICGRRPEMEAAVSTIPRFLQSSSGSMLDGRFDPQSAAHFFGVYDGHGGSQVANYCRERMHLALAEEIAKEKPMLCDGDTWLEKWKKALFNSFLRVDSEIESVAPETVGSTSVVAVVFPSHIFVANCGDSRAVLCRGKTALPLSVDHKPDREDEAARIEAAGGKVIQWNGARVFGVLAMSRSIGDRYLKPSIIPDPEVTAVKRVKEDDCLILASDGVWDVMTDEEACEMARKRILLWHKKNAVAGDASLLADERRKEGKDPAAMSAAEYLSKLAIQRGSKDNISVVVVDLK
Variant,relative binding score [%]
G148F,86.5
V136G,48
E128Y,97.8
V76Y,99.1
S27C,86.4
R24P,62.8
E152L,97.2
I52F,104
R32C,93.4
I172M,101
K126E,110
A175F,89.3
T160Y,95
E127N,105
T106C,105
R46M,105
V142F,84.2
S9D,107
E14D,89

# Set 3
# Target: CCNF, cyclin fold, Cln2 fusion (human)
# Technique: yeast growth competition, sequencing
# Medium: yeast
# Setting: strong parent motif
# Reference: not given
# Reading: higher = stronger binding
# Starting sequence: CDKN1B docking peptide (human); PSACRNLFGPVDH
Variant,normalised enrichment score
PSACRNLFGPIDH [V11I],7.4
PSCCRNLFGPVDH [A3C],6.82
PSSCRNLFGPVDH [A3S],3.65
PSDCRNLFGPVDH [A3D],-0.0686
PNACRNLFGPVDH [S2N],7.09
PSACRNLFGPVRH [D12R],7.79
PSARRNLFGPVDH [C4R],8.77
PSACLNLFGPVDH [R5L],0.561
PSACMNLFGPVDH [R5M],-0.183
PSACRNLFQPVDH [G9Q],3.98
PSACRNLFGPVLH [D12L],7.59
PSACRVLFGPVDH [N6V],6.78
PSACRNLFGLVDH [P10L],7.29
PSACRNLFGPVCH [D12C],7.89
PSKCRNLFGPVDH [A3K],1.09
PRACRNLFGPVDH [S2R],7.95
PSACRNLFGPVDM [H13M],6.92
PSHCRNLFGPVDH [A3H],4.27
YSACRNLFGPVDH [P1Y],7.58
PSACRNLSGPVDH [F8S],0.421
PSACRSLFGPVDH [N6S],5.76
PSACRNLFGRVDH [P10R],8.09
PPACRNLFGPVDH [S2P],7.17

# Set 4
# Target: RING finger protein unkempt homolog, zinc fingers 1-6, GST-SBP tag (UNK, Homo sapiens, UniProt Q9C0B0, residues 30-357)
# Technique: RNA Bind-n-Seq
# Molecule type: RNA
# Medium: in vitro
# Tested at: not given
# Setting: RNA with constant flanks, ends assumed
# Reference: input RNA pool
# Reading: higher = stronger binding
# Residues (chain): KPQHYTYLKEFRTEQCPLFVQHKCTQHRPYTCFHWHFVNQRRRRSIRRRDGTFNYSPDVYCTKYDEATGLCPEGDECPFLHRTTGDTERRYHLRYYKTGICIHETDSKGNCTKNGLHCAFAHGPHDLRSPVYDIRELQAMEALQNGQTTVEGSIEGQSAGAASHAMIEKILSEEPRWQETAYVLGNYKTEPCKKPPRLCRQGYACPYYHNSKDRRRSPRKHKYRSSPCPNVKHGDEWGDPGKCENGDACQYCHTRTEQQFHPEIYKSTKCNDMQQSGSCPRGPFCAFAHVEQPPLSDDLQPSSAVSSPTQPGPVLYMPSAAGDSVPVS
Oligonucleotide,bound/input enrichment [ratio]
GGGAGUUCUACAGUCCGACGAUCCUGGGACCUGAAGGACUGGAUCUGAUUGAGAAGCUGCUCCAGAACAGAAUUACAAUUGCCGAUCGGUUCCUUAAUUCCUCGAGCGAUCAUAAGUUUCAAGUUCUCCAAGAUAGUUGUAAACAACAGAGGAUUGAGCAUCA,0.521
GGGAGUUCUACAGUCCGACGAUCAAACAAGAGACCCUCCCUCCCGGCCAUGUUCCUUGCGGCAGUUGGUGAACUGAGUCUGUAAACCGGGCCCUACCGGUUUUUGUUUUUGUUUUGUUUUGUUUUUCUGUAGGCCUGCAUUGUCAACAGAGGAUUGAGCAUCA,0.488
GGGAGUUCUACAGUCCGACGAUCCUGUCACACUCCAAGGGCCACCAGAAGCGCAAGGCCCUCAAGACGACAGUCAUCCUCAUCCCCGCUUUCUUUGCCUGCUGGCUGCCAUAUUAUGUGGGGAUCAGCAUCGACUCCUUCAUCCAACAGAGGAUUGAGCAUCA,0.0682
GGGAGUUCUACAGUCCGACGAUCCUGCCUCACCAGUUGGUACAUUUUGUUUUUGAAAGAGGUGGGAUCCAAAAGAGCUGUUUCCCGCCACACUCCAAGCACCUGAGACUUUGGGCACAAGGACACUUUUUUUUUUUUUUUUUUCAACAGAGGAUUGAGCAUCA,1.04
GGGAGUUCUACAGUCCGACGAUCCUUCAGAAGAGUAAUGGUGUACUUCCUGAAUUAUUUCAGUGUCAUGGUACUGCAGAUGAGUCCGUUCUUCAUUCUUGGGCAGAAGAGACAAACUCAAUGUUAAAAUCUCUAGGAGUGACCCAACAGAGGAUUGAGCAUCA,0.0905
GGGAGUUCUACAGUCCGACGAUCAUGGCAUAAAAUGUACCUUUGUUCUUAUUGUAUAAUAUUGAGGCUAUUACUAAUUAUUCAUACCGGUCCCAGCAACAGAUAGAAAUGCUUUAAGUUCGCUCUGGGGAAAACUGGCCUCUGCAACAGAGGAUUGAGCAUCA,0.634
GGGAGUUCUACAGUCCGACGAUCUCUGAGGAUACCACUGAAGAGACAUUAAAGGAGUCAUUUGACGGCUCCGUUCGGGCAAGGACCGUUACUGACCGGGAAACUGGGUCCUCCAAAGGGUUUGGUUUUGUAGACUUCAACAGUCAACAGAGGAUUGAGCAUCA,0.126
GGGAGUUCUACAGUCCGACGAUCCAUAAAGUUUGAUGUGCAGUUUCCUGAAAACAACUGGAUCAACCCAGACAAGCUUUCUGAACCCGAAGAUCUUCUGCCAUCUAGACCGGAAGUUCCUAACAUAAUUGGAGAAACAGAGGACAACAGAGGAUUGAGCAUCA,0.131

# Set 5
# Target: Prothrombin, mature alpha-thrombin (F2, Homo sapiens, UniProt P00734)
# Technique: aptamer microarray, sandwich
# Molecule type: DNA with 2'F-ANA
# Medium: in vitro
# Tested at: 200 nM
# Setting: whole 15-mer aptamer, many near background
# Added: Cy3 exosite-II aptamer, 400 nM
# Reading: higher = stronger binding
# Oligonucleotide: GGTTGGTGTGGTTGG
Modification,mean fluorescence intensity
2'F-ANA at 1 3 4 5 8 10 11 13,134 a.u.
2'F-ANA at 2 3 4 5 7 11 12 14,51.3 a.u.
2'F-ANA at 1 4 5 7 8 10 11 14 15,46.2 a.u.
2'F-ANA at 3 8 9 11 13 15,858 a.u.
2'F-ANA at 5 10 13 15,49.4 a.u.
2'F-ANA at 3 7 8 11 12 13,1200 a.u.
2'F-ANA at 1 2 8 9 12 14 15,71.6 a.u.
2'F-ANA at 1 5 10 14,43.8 a.u.
2'F-ANA at 1 2 3 5 7 9 10 12 13 14 15,48 a.u.
2'F-ANA at 4 8 9 10 13 15,67.9 a.u.
2'F-ANA at 1 2 4 10 11 12 14,46.7 a.u.
2'F-ANA at 3 5 6 9 13 14 15,69.3 a.u.
2'F-ANA at 3 5 8 10 12 13 14,56.9 a.u.
2'F-ANA at 1 2 5 6 8 9 10 13,66.4 a.u.
2'F-ANA at 1 2 3 6 7 8 9 10 15,84.8 a.u.
2'F-ANA at 1 2 3 4 5 7 8 9 10,47.4 a.u.
